Measurements gathered from unrelated publications.
Protocols differ between the studies behind these lines.
Matrix: plasma

CN1CCC[C@@H]1C(=O)N[C@@H](Cc1ccc(-c2ccccc2)cc1)B(O)O  Cmax (male Sprague-Dawley rat; oral, 1 mg/kg): 0.505 µM
COC1C(c2ccc(Cl)c(Cc3ccc(OC4CCOC4)cc3)c2)OC(CO)C(O)C1O (stereo not drawn)  Cmax (Sprague-Dawley rat; oral, 5 mg/kg): 3140 ng/mL
OC1(C(F)(F)F)CCN(c2nc(Nc3ccnc(C(F)(F)F)c3)nc(-c3cccc(C(F)(F)F)n3)n2)C1 (stereo not drawn)  Cmax (Sprague-Dawley rat; oral, 20 mg/kg): 1230 ng/mL
C/C(N)=N/C(=N\S(=O)(=O)c1ccc(C(F)(F)F)cc1)N1C[C@H](c2ccccc2)C(c2ccc(Cl)cc2)=N1  Cmax (male Sprague-Dawley rat; oral, 3 mg/kg): 321 ng/mL
O=c1c(-c2ccc(Cl)c(CN3CCOCC3)c2)coc2cc(O)ccc12  Cmax (male Sprague-Dawley rat; oral, 10 mg/kg): 532 ng/mL
CC(=O)O[C@@H]1CC[C@@]2(C)[C@@H](CC[C@]3(C)[C@@H]2C(=O)C=C2[C@@H]4[C@@H](C)[C@H](C)CC[C@]4(C)CC[C@]23C)[C@@]1(C)C(=O)O  Cmax (female Wistar rat; oral, 1 mg/kg): 3360 ng/mL
CC(C)C[C@H](NC(=O)[C@H](CCCN)NC(=O)CNC(=O)[C@@H](NC(=O)[C@H](C)NC(=O)[C@@H]1CSCSC[C@H](NC(=O)CC[C@H](N)C(=O)O)C(=O)N[C@@H](CC(N)=O)C(=O)N[C@@H]([C@@H](C)O)C(=O)N[C@@H](C)C(=O)N[C@@H]([C@@H](C)O)C(=O)N1)[C@@H](C)O)C(=O)N[C@@H](C)C(=O)N[C@@H](CCC(=O)O)C(=O)N[C@@](C)(Cc1ccccc1)C(=O)N[C@@H](CC(C)C)C(=O)N[C@H](C(=O)N[C@@H](CCCNC(=N)N)C(=O)N[C@@H](CO)C(=O)N[C@@H](CO)C(=O)N[C@@H](CC(N)=O)C(=O)N(C)[C@@H](CC(N)=O)C(=O)N[C@@H](Cc1ccccc1)C(=O)NCC(=O)N1CCC[C@H]1C(=O)N[C@@H](CCCCNC(=O)CC[C@H](NC(=O)CC[C@H](NC(=O)CCCCCCCCCCCCCCCCCCC(=O)O)C(=O)O)C(=O)O)C(=O)N[C@@H](CC(C)C)C(=O)N1CCC[C@H]1C(=O)N1CCC[C@H]1C(=O)N[C@H](C(=O)N[C@@H](CCC(=O)O)C(=O)N[C@H](C(=O)NCC(=O)N[C@@H](CO)C(=O)N[C@@H](CC(N)=O)C(=O)N[C@H](C(=O)N[C@@H](Cc1ccc(O)cc1)C(N)=O)[C@@H](C)O)C(C)C)[C@@H](C)O)C(C)C  Cmax (male Sprague-Dawley rat; subcutaneous, 30 nmol/kg, single dose): 0.146 µM
COc1cc(OC)c2c(=O)cc(-c3cc(C)c(OCCCN4CCN(C)CC4)c(C)c3)oc2c1  Cmax (male Sprague-Dawley rat; intravenous, 10 mg/kg, single dose): 1970 ng/mL
COc1ccc(C(N)=O)cn1  Cmax (male Wistar rat; oral, 30 mg/kg): ~100 µM
CCOP(=O)(CC(=O)Nc1ccc(S(=O)(=O)N(CC(N)=O)c2ccc(N(CC(N)=O)S(=O)(=O)c3ccc(OC)cc3)c3ccccc23)cc1)OCC  Cmax (male Wistar rat; oral, 28 mg/kg, single dose): 217 ng/mL
CNc1cc(N)c(C(N)=O)cn1  Cmax (male Wistar rat; oral, 30 mg/kg): 30 µM
CCC(CC)n1c(Cc2ccco2)nc2cc(C(=O)N[C@@H](CC(=O)O)c3ccccc3)ccc21  Cmax (male Sprague-Dawley rat; intravenous, 1 mg/kg): 964 ng/mL
C=C(NC(=O)c1csc(-c2nc3c(cc2O)-c2nc(cs2)C(=O)NC(C(C)O)C(=O)NC(=C(C)OC)c2nc(cs2)C(=O)NC2c4nc(cs4)C(=O)NC(COC(=O)c4c5c6c(cccc6n4O)COC(=O)C(OC4CC(C)(O)C(N(C)C)C(C)O4)C2OC5)c2nc-3cs2)n1)C(N)=O (stereo not drawn)  Cmax (male Sprague-Dawley rat; intravenous, 18 mg/kg, single dose, infusion): 5880 ng/mL
COC(=O)C1=CNC=C(C(=O)OC)C1c1ccc(F)c(C(F)(F)F)c1  Cmax (male Sprague-Dawley rat; oral, 50 mg/kg): 764 ng/mL
O=C(O)c1c(O)cc(O[C@@H]2O[C@H](CO)[C@@H](O)[C@H](O)[C@H]2O)cc1/C=C/c1ccccc1  Cmax (male Sprague-Dawley rat; oral, 5 mg/kg): 114 ng/mL
Cc1cc2c(cc1O)C=C1C=CC(=O)C(C)(C)[C@H]1CC2  Cmax (male Sprague-Dawley rat; intravenous, 2 mg/kg): 1140 ng/mL
CCC(CC)n1c(Cc2cccs2)nc2cc(C(=O)N[C@@H](CC(=O)O)c3ccccc3)ccc21  Cmax (male Sprague-Dawley rat; intraperitoneal, 10 mg/kg): 1670 ng/mL
CC(=Nc1ccc(N)cc1)N(C)C  Cmax (male Sprague-Dawley rat; intravenous, 20 mg/kg): 3300 ng/mL

Excerpt of the above:
CC(C)C[C@H](NC(=O)[C@H](CCCN)NC(=O)CNC(=O)[C@@H](NC(=O)[C@H](C)NC(=O)[C@@H]1CSCSC[C@H](NC(=O)CC[C@H](N)C(=O)O)C(=O)N[C@@H](CC(N)=O)C(=O)N[C@@H]([C@@H](C)O)C(=O)N[C@@H](C)C(=O)N[C@@H]([C@@H](C)O)C(=O)N1)[C@@H](C)O)C(=O)N[C@@H](C)C(=O)N[C@@H](CCC(=O)O)C(=O)N[C@@](C)(Cc1ccccc1)C(=O)N[C@@H](CC(C)C)C(=O)N[C@H](C(=O)N[C@@H](CCCNC(=N)N)C(=O)N[C@@H](CO)C(=O)N[C@@H](CO)C(=O)N[C@@H](CC(N)=O)C(=O)N(C)[C@@H](CC(N)=O)C(=O)N[C@@H](Cc1ccccc1)C(=O)NCC(=O)N1CCC[C@H]1C(=O)N[C@@H](CCCCNC(=O)CC[C@H](NC(=O)CC[C@H](NC(=O)CCCCCCCCCCCCCCCCCCC(=O)O)C(=O)O)C(=O)O)C(=O)N[C@@H](CC(C)C)C(=O)N1CCC[C@H]1C(=O)N1CCC[C@H]1C(=O)N[C@H](C(=O)N[C@@H](CCC(=O)O)C(=O)N[C@H](C(=O)NCC(=O)N[C@@H](CO)C(=O)N[C@@H](CC(N)=O)C(=O)N[C@H](C(=O)N[C@@H](Cc1ccc(O)cc1)C(N)=O)[C@@H](C)O)C(C)C)[C@@H](C)O)C(C)C  Cmax (male Sprague-Dawley rat; subcutaneous, 30 nmol/kg, single dose): 0.146 µM
O=C(O)c1c(O)cc(O[C@@H]2O[C@H](CO)[C@@H](O)[C@H](O)[C@H]2O)cc1/C=C/c1ccccc1  Cmax (male Sprague-Dawley rat; oral, 5 mg/kg): 114 ng/mL
